Results pooled from the literature.
Every numbered part comes from another study and shows a few of its results, in no order. Substitutions count along the parent as printed.

Block 1 — technique: RNA Bind-n-Seq; form: RNA; sample: in vitro; tested at: 365 nM; relative to: no-protein control; reading: higher = stronger binding
Target: RNA binding protein fox-1 homolog 2, RRM domain, GST-SBP tag (RBFOX2, Homo sapiens, UniProt O43251-10, residues 100-194)
Setting: natural RNA segment, single round, ends assumed
All sequences stand within: GGGAGUUCUACAGUCCGACGAUC … UGGAAUUCUCGGGUGCCAA
Construct (chain): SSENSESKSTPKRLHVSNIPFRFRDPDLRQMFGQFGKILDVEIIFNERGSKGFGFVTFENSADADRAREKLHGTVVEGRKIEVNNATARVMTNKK
Oligonucleotide	RBNS enrichment (R)
CCAAGAUCAUGCCACUGCACUCCAGCCUGGGCAACACAGCGAGACUCCGUCUCAAAAAGAAAAAGUUUGGAUCAGGCAGGGUGGCUCACACCUGUAAUCCCUGCACUUUG	0.699
UUUGGCAUUCUUACUGGAGCUGCAGACAGAAAUCUACAAAGACAAAAGUAAACAAAAUUAAGUUAUUAUUCCACUGUUAGGAAUGGAAAUAAACUUGUGAAGUCUGUUUA	0.439
GCCUCUGUUUAUUUUUGCUUGUUGGAAAUAGGGUUCAACCAUGCAUAGUUAGAAUCACUAUGCAUCUGUCUGUCCACACAGGAAGUGCUAUAGCUCUCAAGUGCUCUAGA	1.27
GAAUUUCUCAUGUAUACUAUGUUUAAUGGUAGGGUCUCACUGUUAAGGCACAAAUUAUUUCAAAGGAGUUGCUCUAAAAACAGAUUAUUUCCCGGAAAAAAAAAAAUGCA	2.37
AUAGUGUUGGUGAGUUCAAGUCAUCACGCCAAGUGCUUGCCAUCCUGGUUGCUAUUCUAAGAAUAAUUAGGAGGAGGAACCUAGCCAAUUGCAGCUCAUGUCCGUGGGUG	0.187
UGUUUUUUUAAAUCAAGAACUACGUUCUGCCCCUCUCUUGGGCUUCAGAAGCAUCUAAGAAAAGCAGUCAUCAAUUAUAAUUAACUUUCAAAGGGCAAGUCAGAAGUUGU	0.357
UUGUACUCAAUGGUAUCAUUACAAUUUUCUGUAAGAGAAAAUAUUACUUAUUUAUCCUAGUAUUCCUAACCUGUCAGAAUAAUAAAUAUUGGAACCAAGACAUGGUAAAC	0.529
AUGUGGGUGUUAGAAAAAUUACCAUAUAGCUUAAUAUGUUUAUUAGUUCUCUUUGGAAAAAAACUACCACUGUGGUCUUAAAAGGGAACAAAAUAUACCAUAGGCUAAAA	0.479
GUAAGCCACACACCUGCCACUUAGCCAGAAUGCCCAGGAUCGCGUUGGUCACUGUUAUUUGCCUACUGCUGGAAGAAGGACAACCGCUGGCAAGGUAGCGUUCCCCAAUC	0.429
CCAAGUGGGAAGAAGGCACACCUAGCUUGGACCCACCCACAAGCUGCACUGUGUGACCUCUCUGUUGCCAGGGUGGGCAAGGGCUCAGCCACUCUGCCCACUAAAGUGCC	0.285

Block 2 — target: CCNB3, cyclin fold, Cln2 fusion (human); technique: yeast growth competition, sequencing; sample: yeast; setting: weak parent motif; relative to: not given; reading: higher = stronger binding
Parent: RB1 docking peptide (human); PKPLKKLRFDIEG
Variant	normalised enrichment score
L7I	0.285
D10L	0.14
D10A	0.264
E12W	0.0664
G13S	0.283
K6L	0.596

Block 3 — technique: protein-binding microarray; form: double-stranded DNA, one strand shown; sample: in vitro; tested at: 0.8 µM; setting: whole 60-bp probe, no competitor; reading: higher = stronger binding; all sequences stand within: … GTCTTGATTCGCTTGACGCTGCTG
Target: Centromere-binding protein 1, full length, N-terminal tag (CBF1, Saccharomyces cerevisiae, UniProt P17106, residues 1-351)
Chain of UniProt P17106 (whole entry, looked up): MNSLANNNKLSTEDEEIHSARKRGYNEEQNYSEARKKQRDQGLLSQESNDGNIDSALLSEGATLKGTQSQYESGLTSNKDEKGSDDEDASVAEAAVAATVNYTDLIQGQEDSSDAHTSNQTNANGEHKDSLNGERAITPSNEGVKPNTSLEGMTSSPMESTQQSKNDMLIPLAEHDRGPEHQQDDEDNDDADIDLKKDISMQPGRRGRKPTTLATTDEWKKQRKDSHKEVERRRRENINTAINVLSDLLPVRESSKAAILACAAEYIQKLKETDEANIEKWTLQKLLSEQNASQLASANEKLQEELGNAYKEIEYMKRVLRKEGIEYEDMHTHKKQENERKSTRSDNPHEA
Oligonucleotide	fluorescence intensity
GAACGTTGGTAAAACCACGAGTTTGGAATCAAATAG	570 a.u.
CCTAACTACTATAGCGTCACCATATAGCTTCGTACA	528 a.u.
CTATGATGGTGGTGGCACGCGATAGTACGGCACTTC	572 a.u.
CCTAACTACTATAAATACATCAGATAGCTTCGTACA	509 a.u.
CTATAGCCCTCTAAACACGTGGAGAGTAACCTTTTC	2230 a.u.
CTACCATCCTTTCTGCACATGTTACGCTGTTTATTC	719 a.u.
GAACTGCTGCATTGTCACGGGCTGGACATTTGGTAG	891 a.u.
GAATATATATTCATGCACATGTGTAACAATGTATAG	1300 a.u.
CTAAAATTCAAGGTGCTGATGTTCAGTAAAGCCTTC	551 a.u.
GAATTCAAAGATGATCACATAAATTGCGCCCAATAG	510 a.u.
CTAGGTGGCGAAACAAAGGTGATGAAAGTTTCTTTC	476 a.u.
GAAGGACGAGAAAACCGTGTGACACCGTCCGCTTAG	568 a.u.
CTAGCTATGGAAAGGCACGTAGTTCTACTTACTTTC	472 a.u.

Further values, each from its own experiment
Substance	target	test	system	conditions	how to read	quantity	value
PhoQ, residues 284 288 289 292 302 303 TLSLKA	PhoP, residues 12 14 15 18 19 STWGI (Escherichia coli, UniProt P23836)	Sort-seq, item: YFP reporter	E. coli	PhoQ-PhoP variant library, together with: 10 µM Mg2+	relative to: high Mg2+ state, higher = stronger signaling	fold induction	3.23

Some of these lines once more (block 3):
Oligonucleotide	fluorescence intensity
GAACGTTGGTAAAACCACGAGTTTGGAATCAAATAG	570 a.u.
CCTAACTACTATAGCGTCACCATATAGCTTCGTACA	528 a.u.
